# Published values from different studies.
# A part holds a random share of what one study measured.
# Chain of UniProt Q9UQB9 (whole entry, looked up): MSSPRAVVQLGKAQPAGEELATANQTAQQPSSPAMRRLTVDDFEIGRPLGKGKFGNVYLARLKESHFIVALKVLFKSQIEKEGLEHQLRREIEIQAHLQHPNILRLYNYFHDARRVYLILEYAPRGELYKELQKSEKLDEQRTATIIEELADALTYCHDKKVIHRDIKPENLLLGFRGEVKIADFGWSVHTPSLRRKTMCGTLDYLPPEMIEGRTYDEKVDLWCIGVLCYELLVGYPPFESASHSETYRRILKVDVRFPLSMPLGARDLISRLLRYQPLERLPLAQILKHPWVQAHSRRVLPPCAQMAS
# Chain of UniProt Q15835 (whole entry, looked up): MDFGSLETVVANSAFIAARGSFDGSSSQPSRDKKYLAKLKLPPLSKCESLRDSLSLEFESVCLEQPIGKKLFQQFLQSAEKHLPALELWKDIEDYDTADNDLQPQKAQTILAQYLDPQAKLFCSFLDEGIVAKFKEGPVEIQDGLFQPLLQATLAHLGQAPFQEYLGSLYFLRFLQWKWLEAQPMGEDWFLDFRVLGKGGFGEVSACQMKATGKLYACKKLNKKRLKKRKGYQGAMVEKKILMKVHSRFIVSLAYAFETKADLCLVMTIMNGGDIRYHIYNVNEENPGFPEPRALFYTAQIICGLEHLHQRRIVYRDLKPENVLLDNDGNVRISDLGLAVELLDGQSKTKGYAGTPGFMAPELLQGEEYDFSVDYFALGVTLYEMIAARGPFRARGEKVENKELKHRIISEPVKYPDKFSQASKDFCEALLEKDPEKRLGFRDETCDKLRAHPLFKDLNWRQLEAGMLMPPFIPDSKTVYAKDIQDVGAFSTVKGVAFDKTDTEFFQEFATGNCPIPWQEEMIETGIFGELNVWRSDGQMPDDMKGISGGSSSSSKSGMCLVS
# Chain of UniProt P07333 (whole entry, looked up): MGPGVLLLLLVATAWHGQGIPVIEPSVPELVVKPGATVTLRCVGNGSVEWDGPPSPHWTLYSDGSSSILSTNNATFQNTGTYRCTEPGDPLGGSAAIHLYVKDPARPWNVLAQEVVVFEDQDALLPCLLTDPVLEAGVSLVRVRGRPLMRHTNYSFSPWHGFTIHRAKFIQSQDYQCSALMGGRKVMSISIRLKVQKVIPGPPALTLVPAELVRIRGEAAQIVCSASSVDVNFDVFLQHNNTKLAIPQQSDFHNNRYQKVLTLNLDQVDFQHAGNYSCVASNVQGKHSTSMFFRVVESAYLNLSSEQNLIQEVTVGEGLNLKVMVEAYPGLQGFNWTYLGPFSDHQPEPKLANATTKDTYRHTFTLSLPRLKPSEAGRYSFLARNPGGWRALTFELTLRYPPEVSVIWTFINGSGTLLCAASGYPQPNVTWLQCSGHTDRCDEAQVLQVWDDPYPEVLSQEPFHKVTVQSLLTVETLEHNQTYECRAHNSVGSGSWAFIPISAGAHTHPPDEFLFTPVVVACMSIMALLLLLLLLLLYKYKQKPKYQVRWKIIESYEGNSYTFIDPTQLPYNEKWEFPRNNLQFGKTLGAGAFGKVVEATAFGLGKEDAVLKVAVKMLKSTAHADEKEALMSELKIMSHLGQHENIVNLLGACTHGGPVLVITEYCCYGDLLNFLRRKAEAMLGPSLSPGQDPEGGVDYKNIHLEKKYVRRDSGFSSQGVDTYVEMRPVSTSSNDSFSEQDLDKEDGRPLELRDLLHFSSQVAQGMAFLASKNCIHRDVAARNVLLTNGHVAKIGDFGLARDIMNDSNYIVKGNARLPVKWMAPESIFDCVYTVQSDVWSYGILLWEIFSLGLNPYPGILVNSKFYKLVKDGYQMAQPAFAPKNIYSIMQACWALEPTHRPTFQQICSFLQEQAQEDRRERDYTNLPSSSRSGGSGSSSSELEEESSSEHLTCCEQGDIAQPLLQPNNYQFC
# Chain of UniProt P43403 (whole entry, looked up): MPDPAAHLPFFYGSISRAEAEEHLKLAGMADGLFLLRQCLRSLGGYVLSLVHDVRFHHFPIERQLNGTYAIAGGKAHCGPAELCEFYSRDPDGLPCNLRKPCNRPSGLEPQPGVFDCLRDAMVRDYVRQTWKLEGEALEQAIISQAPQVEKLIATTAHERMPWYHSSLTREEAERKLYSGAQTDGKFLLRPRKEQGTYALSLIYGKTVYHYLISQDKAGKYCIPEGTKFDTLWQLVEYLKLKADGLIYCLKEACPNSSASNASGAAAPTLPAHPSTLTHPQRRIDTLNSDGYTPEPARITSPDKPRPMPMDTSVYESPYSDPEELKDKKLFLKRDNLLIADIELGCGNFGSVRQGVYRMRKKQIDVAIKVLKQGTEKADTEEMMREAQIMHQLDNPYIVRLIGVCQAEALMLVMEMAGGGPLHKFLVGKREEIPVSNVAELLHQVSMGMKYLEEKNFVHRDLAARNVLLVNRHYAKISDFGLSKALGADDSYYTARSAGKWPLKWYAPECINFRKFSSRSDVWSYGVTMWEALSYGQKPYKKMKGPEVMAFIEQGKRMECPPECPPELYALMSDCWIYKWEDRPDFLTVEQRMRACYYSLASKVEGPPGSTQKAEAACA
# Chain of UniProt Q12852 (whole entry, looked up): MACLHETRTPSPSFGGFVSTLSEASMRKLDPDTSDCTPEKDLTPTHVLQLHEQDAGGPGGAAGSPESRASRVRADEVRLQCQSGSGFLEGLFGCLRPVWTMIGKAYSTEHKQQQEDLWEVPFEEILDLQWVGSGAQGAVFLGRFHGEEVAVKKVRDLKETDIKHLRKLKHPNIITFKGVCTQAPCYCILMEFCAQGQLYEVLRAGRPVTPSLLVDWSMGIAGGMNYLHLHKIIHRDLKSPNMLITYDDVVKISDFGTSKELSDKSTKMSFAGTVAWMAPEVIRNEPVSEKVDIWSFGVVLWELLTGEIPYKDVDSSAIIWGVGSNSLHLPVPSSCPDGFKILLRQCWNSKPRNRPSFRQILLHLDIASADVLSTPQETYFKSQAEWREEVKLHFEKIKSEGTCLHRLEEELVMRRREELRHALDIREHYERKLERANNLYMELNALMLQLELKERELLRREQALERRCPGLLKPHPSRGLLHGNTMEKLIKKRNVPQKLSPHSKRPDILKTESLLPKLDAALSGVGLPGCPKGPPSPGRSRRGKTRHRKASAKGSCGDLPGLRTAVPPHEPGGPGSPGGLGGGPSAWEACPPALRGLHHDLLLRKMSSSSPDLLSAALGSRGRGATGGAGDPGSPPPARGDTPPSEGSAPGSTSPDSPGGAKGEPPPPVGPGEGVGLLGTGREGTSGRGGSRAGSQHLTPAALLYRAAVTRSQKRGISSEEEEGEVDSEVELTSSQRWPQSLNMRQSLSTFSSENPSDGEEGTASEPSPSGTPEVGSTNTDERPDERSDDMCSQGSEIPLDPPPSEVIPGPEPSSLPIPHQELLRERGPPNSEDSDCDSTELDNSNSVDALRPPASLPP
# Chain of UniProt O00141 (whole entry, looked up): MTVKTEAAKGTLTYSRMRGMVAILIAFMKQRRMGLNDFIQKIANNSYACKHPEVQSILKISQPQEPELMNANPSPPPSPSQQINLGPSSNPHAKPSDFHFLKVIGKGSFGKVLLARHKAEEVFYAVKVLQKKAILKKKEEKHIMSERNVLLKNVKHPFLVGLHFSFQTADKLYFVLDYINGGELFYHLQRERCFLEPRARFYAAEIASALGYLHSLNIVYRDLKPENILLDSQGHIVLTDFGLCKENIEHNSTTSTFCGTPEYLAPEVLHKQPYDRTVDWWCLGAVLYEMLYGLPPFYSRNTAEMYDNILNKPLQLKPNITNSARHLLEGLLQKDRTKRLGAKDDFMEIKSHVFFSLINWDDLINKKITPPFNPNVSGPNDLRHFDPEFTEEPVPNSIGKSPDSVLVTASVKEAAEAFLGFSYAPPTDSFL
# Chain of UniProt P23443 (whole entry, looked up): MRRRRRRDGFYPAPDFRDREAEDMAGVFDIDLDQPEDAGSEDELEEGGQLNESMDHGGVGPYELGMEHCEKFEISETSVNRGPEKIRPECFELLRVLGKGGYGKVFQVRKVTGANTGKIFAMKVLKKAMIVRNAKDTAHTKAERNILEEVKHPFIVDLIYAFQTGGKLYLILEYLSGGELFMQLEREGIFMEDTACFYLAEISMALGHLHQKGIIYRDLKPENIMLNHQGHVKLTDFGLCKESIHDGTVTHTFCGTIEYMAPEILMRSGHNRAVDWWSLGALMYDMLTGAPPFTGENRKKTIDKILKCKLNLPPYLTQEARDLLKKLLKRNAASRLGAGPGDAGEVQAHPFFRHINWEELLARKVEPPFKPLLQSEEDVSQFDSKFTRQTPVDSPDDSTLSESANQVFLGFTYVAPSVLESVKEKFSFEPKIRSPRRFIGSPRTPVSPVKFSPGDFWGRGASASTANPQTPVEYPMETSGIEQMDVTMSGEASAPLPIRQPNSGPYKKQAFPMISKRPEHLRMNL
# Chain of UniProt P25098 (whole entry, looked up): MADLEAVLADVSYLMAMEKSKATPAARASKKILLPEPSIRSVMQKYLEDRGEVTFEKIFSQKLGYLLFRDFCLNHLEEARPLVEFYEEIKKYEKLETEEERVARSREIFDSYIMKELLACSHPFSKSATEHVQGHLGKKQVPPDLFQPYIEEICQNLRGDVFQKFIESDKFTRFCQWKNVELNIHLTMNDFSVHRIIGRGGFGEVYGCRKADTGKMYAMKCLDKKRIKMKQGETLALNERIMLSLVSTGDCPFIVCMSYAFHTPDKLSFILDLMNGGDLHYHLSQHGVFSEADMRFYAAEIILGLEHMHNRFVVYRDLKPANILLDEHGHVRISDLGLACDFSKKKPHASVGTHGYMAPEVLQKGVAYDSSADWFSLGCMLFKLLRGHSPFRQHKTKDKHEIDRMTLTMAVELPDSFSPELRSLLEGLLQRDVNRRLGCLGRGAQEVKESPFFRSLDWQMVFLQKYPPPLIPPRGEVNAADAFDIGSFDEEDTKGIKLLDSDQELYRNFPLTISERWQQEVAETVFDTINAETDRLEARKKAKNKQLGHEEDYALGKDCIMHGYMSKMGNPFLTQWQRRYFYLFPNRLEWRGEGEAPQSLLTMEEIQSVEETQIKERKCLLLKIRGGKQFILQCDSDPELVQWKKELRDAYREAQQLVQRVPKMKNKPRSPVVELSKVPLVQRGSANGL

# Block 1 — species: human; matrix: microsomes or S9; concentration: 2 µM; time: 0.5 h
Structure (SMILES),remaining compound [%]
Cc1nc2nc(CCNS(=O)(=O)c3cccs3)cn2nc1C,> 99
O=C(O)C1C[S+]([O-])C2c3ccccc3C(=O)N12 (centres unmarked),21.4
OCCOCCN1CCN(c2nc(Cl)cc(Nc3ccc4[nH]ncc4c3)n2)CC1,75
CN(C)S(=O)(=O)c1ccc(COc2ccc(-n3ccnc3)cc2)o1,> 99.9
O=C(C1c2ccccc2C(=O)N2CCc3ccccc3C12)N1CCC(Cc2ccccc2)CC1 (centres unmarked),35.9
Cc1csc(C2=C(N)N(C(C)CCc3ccco3)CC2=O)n1 (centres unmarked),24.3

# Block 2 — method: KINOMEscan; concentration: 10 µM; relative to: DMSO control; direction: lower = stronger binding
# SMILES: COc1cc(C(=O)N2CCC(N3CCN(C)CC3)CC2)ccc1Nc1ncc2c(n1)N(C)c1ccccc1C(=O)N2C
target,binding [%]
FER,51
PLK3,51
MYLK,8.7
PKMYT1,80
EPHA8,80
PKN2,95
MAP4K4,85

# Block 3 — read-out: enzyme activity; mode: inhibitor; concentration: 0.5 µM; relative to: control
# Compound: CC(C)[C@H](CO)Nc1nc(Nc2cccc(Cl)c2)c2ncn(C(C)C)c2n1
target,remaining activity [%]
"GRK6 (Homo sapiens, UniProt P43250)",98.3
"FGFR4 (Homo sapiens, UniProt P22455)",79
"GRK2 (Homo sapiens, UniProt P25098)",103
"PRKCG (Homo sapiens, UniProt P05129)",98.2
"FLT3 (Homo sapiens, UniProt P36888)",16.4
"PIM2 (Homo sapiens, UniProt Q9P1W9)",105
"MYLK (Homo sapiens, UniProt Q15746)",95.1
"RPS6KB1 (Homo sapiens, UniProt P23443)",90.8
"PAK2 (Homo sapiens, UniProt Q13177)",103
"Aurora kinase C (AURKC, Homo sapiens, UniProt Q9UQB9)",93.2
"CSF1R (Homo sapiens, UniProt P07333)",96.9
"GSK3A (Homo sapiens, UniProt P49840)",108
"EPHA7 (Homo sapiens, UniProt Q15375)",86.8
"PRKCE (Homo sapiens, UniProt Q02156)",115
"RPS6KA1 (Homo sapiens, UniProt Q15418)",77.3
"CSK (Homo sapiens, UniProt P41240)",98.1
"SGK1 (Homo sapiens, UniProt O00141)",99.1
"BMX (Homo sapiens, UniProt P51813)",84.3
"SRPK3 (Homo sapiens, UniProt Q9UPE1)",70.4
"NUAK1 (Homo sapiens, UniProt O60285)",71.1
"EPHB2 (Homo sapiens, UniProt P29323)",99.3

# Block 4 — method: competition with immobilised ligand; concentration: 1 µM
# Compound: CN(C)C(=O)Cn1cc(-c2nc([C@@](C)(c3ccc(-c4cnc(N)nc4)cc3)C3CC3)no2)cn1
target,test,remaining binding
"ZAP70 (Homo sapiens, UniProt P43403)",cell-free assay,100%
"CAMK1D (Homo sapiens, UniProt Q8IU85)",cell-free assay,100%
"MAK (Homo sapiens, UniProt P20794)",cell-free assay,100%
"MAP3K12 (Homo sapiens, UniProt Q12852)",cell-free assay,80%
"LRRK2 (Homo sapiens, UniProt Q5S007)",cell-free assay,74%
"eIF-2-alpha kinase GCN2, C-terminal kinase domain (EIF2AK4, Homo sapiens, UniProt Q9P2K8, S808G)",cell-free assay,100%
"DYRK2 (Homo sapiens, UniProt Q92630)",cell-free assay,89%
"GRK1 (Homo sapiens, UniProt Q15835)",cell-free assay,100%
"Tyrosine-protein kinase ABL1, phosphorylated (ABL1, Homo sapiens, UniProt P00519, H396P)",cell-free assay,76%
"EIF2AK1 (Homo sapiens, UniProt Q9BQI3)",cell-free assay,96%
"CDK18 (Homo sapiens, UniProt Q07002)",cell-free assay,100%
"TGFBR1 (Homo sapiens, UniProt P36897)",cell-free assay,100%
"CDKL5 (Homo sapiens, UniProt O76039)",binding,89%

# Repeated from above (block 4):
target,test,remaining binding
"DYRK2 (Homo sapiens, UniProt Q92630)",cell-free assay,89%
"GRK1 (Homo sapiens, UniProt Q15835)",cell-free assay,100%
"Tyrosine-protein kinase ABL1, phosphorylated (ABL1, Homo sapiens, UniProt P00519, H396P)",cell-free assay,76%
